{"data": "Experimental data from different studies", "rep nsp3 Mac1 domain": "Replicase polyprotein 1ab, nsp3 Mac1 domain (rep, Severe acute respiratory syndrome coronavirus 2, UniProt P0DTD1)", "rep main protease": "Replicase polyprotein 1ab, main protease (rep, Severe acute respiratory syndrome coronavirus 2, UniProt P0DTD1)", "rep nsp14": "Replicase polyprotein 1ab, nsp14 (rep, Severe acute respiratory syndrome coronavirus 2, UniProt P0DTD1)", "rep nsp14 with nsp10": "Replicase polyprotein 1ab, nsp14 with nsp10 (rep, Severe acute respiratory syndrome coronavirus 2, UniProt P0DTD1)", "note": "Lines come from different studies, so protocols differ. Numbers after ± are the reported error."}
{"SMILES": "COc1cccc(C(=O)N(CCC(=O)N2CCNCC2)Cc2cccc(Cl)c2)c1", "target or system": "rep nsp3 Mac1 domain", "assay": "enzyme activity, inhibitor, fluorescence polarization", "measurement": "IC50", "value": "> 300000 nM"}
{"SMILES": "O=C(Nc1cccc(Cl)c1)Nc1nonc1NC(=O)Nc1cccc(Cl)c1", "target or system": "Replicase polyprotein 1ab, nsp4-nsp5-nsp6 precursor (rep, Severe acute respiratory syndrome coronavirus 2, UniProt P0DTD1)", "assay": "reporter gene, inhibitor, Rev-Nluc cell", "measurement": "IC50", "value": "> 50000 nM"}
{"SMILES": "CS(=O)(=O)CCCNC(=O)C[C@H](Cc1ccc(F)cc1)NC(=O)[C@@H](Cc1ccc(Cl)cc1Cl)NC(=O)[C@H](N)Cc1ccccc1C#N", "target or system": "rep main protease", "assay": "enzyme activity, inhibitor", "measurement": "IC50", "value": "100 nM"}
{"SMILES": "O=C(Oc1cncc(Cl)c1)c1cc2ccccc2s1", "target or system": "rep main protease", "assay": "enzyme activity, inhibitor", "measurement": "IC50", "value": "26.1 nM"}
{"SMILES": "COc1ccc(CNC(=O)c2cc(S(=O)(=O)N3CCC(C)CC3)c(C)n2C)cc1", "target or system": "rep nsp14", "assay": "enzyme activity, inhibitor", "measurement": "IC50", "value": "540 nM"}
{"SMILES": "CN(C)CCCCNC(=O)C[C@H](Cc1ccc(F)cc1)NC(=O)[C@@H](Cc1ccc(Cl)cc1Cl)NC(=O)[C@H](O)Cc1ccccc1C#N", "target or system": "rep main protease", "assay": "enzyme activity, inhibitor", "measurement": "IC50", "value": "500 nM"}
{"SMILES": "CC(C)C[C@@H](C(=O)N[C@@H](C[C@@H]1CCNC1=O)C(=O)C(=O)NC1CC1)N1C[C@@H](NC(=O)OCc2cc(F)cc(F)c2)CCC1=O", "target or system": "rep main protease", "assay": "inhibitor", "measurement": "IC50", "value": "1920 nM"}
{"SMILES": "O=C(NCc1ccc(F)cc1)C1C(=O)N(O)C(=O)c2cc([N+](=O)[O-])ccc21 (stereo not drawn)", "target or system": "rep nsp14 with nsp10", "assay": "exonuclease activity, inhibitor", "measurement": "IC50", "value": "14700 ± 4600 nM"}
{"SMILES": "N#Cc1ccccc1C[C@@H](N)C(=O)N[C@H](Cc1ccc(Cl)cc1Cl)C(=O)N[C@H](CC(=O)NCCCCC(=O)O)Cc1ccc(F)cc1", "target or system": "rep main protease", "assay": "enzyme activity, inhibitor", "measurement": "IC50", "value": "200 nM"}
{"SMILES": "Oc1nc(/C=C/c2ccc(Cl)cc2Cl)cc(C(F)(F)F)n1", "target or system": "Replicase polyprotein 1ab, nsp16 with nsp10 (rep, Severe acute respiratory syndrome coronavirus 2, UniProt P0DTD1)", "assay": "nsp16-nsp10 methyltransferase activity", "setting": "no preincubation, added: DTT 5 mM", "measurement": "IC50", "value": "~100000 nM"}
{"SMILES": "CC[C@H](C)[C@H](NC(=O)[C@H](C)NC(=O)[C@H](CCC(=O)O)NC(=O)[C@H](CCC(=O)O)NC(=O)[C@H](CC(C)C)NC(=O)[C@H](CCCCN)NC(=O)[C@H](CCCCN)NC(=O)[C@H](CCSC)NC(=O)[C@H](CCC(=O)O)NC(=O)[C@H](Cc1ccc(O)cc1)NC(=O)[C@H](CCC(=O)O)NC(=O)[C@H](CC(C)C)NC(=O)[C@H](CC(=O)O)NC(=O)[C@H](CC(C)C)NC(=O)[C@H](Cc1ccccc1)NC(=O)[C@H](Cc1ccccc1)NC(=O)[C@@H](NC(=O)[C@H](CC(N)=O)NC(=O)[C@@H](NC(=O)[C@H](CCC(N)=O)NC(=O)[C@H](CC(=O)O)NC(=O)[C@H](CC(C)C)NC(=O)[C@@H](N)CO)[C@@H](C)CC)C(C)C)C(=O)N[C@@H](CCCCN)C(=O)N[C@@H](CCCCN)C(=O)N[C@@H](CC(C)C)C(=O)N[C@@H](CCC(=O)O)C(=O)N[C@@H](CCC(=O)O)C(=O)N[C@@H](C)C(=O)N[C@@H](Cc1ccc(O)cc1)C(=O)N[C@H](C(=O)N[C@@H](CC(=O)O)C(=O)N[C@@H](CC(C)C)C(=O)N[C@@H](CCCCN)C(=O)N[C@@H](CCC(=O)O)C(=O)N[C@@H](CC(C)C)C(=O)O)[C@@H](C)CC", "target or system": "SARS-CoV-2 Alpha pseudovirus", "assay": "pseudovirus infection, inhibitor, luciferase", "system": "Caco-2", "setting": "24 h, dual mutations", "measurement": "IC50", "value": "349 nM"}
{"SMILES": "Cc1c(S(=O)(=O)N2CCC(C)CC2)cc(C(=O)NC2CCCC2)n1C", "target or system": "rep nsp14", "assay": "enzyme activity, inhibitor", "measurement": "IC50", "value": "1400 nM"}
{"SMILES": "CC[C@H](C)[C@H](NC(=O)[C@H](C)NC(=O)[C@H](CCC(=O)O)NC(=O)[C@H](CCC(=O)O)NC(=O)[C@H](CC(C)C)NC(=O)[C@H](CCCCN)NC(=O)[C@H](CCCCN)NC(=O)[C@H](CCSC)NC(=O)[C@H](CCC(=O)O)NC(=O)[C@H](Cc1ccc(O)cc1)NC(=O)[C@H](CCC(=O)O)NC(=O)[C@H](CC(C)C)NC(=O)[C@H](CC(=O)O)NC(=O)[C@H](CC(C)C)NC(=O)[C@H](Cc1ccccc1)NC(=O)[C@@H](NC(=O)[C@@H](NC(=O)[C@H](CC(N)=O)NC(=O)[C@@H](NC(=O)[C@H](CCC(N)=O)NC(=O)[C@H](CC(=O)O)NC(=O)[C@H](CC(C)C)NC(=O)[C@@H](N)CO)[C@@H](C)CC)C(C)C)[C@@H](C)O)C(=O)N[C@@H](CCCCN)C(=O)N[C@@H](CCCCN)C(=O)N[C@@H](CC(C)C)C(=O)N[C@@H](CCC(=O)O)C(=O)N[C@@H](CCC(=O)O)C(=O)N[C@@H](C)C(=O)N[C@@H](Cc1ccc(O)cc1)C(=O)N[C@H](C(=O)N[C@@H](CC(=O)O)C(=O)N[C@@H](CC(C)C)C(=O)N[C@@H](CCCCN)C(=O)N[C@@H](CCC(=O)O)C(=O)N[C@@H](CC(C)C)C(=O)O)[C@@H](C)CC", "target or system": "SARS-CoV-2 EG.5.1 pseudovirus", "assay": "pseudovirus infection, inhibitor, luciferase", "system": "Caco-2", "setting": "24 h", "measurement": "IC50", "value": "1050 nM"}
{"SMILES": "N#Cc1ccccc1C[C@@H](N)C(=O)N[C@H](Cc1ccc(Cl)cc1Cl)C(=O)N[C@H](CC(=O)NCCCC(N)=O)Cc1ccc(F)cc1", "target or system": "rep main protease", "assay": "enzyme activity, inhibitor", "measurement": "IC50", "value": "90 nM"}
{"SMILES": "Cc1ccccc1S(=O)(=O)Nc1cccc(C(=O)NC2CCN(c3ncnc4[nH]cnc34)CC2)c1", "target or system": "SARS-CoV-2", "system": "Wuhan-Hu-1", "setting": "0.03048 µM", "how to read": "baseline: untreated infected cells", "measurement": "relative infection", "value": "85.5%"}
{"SMILES": "N#CCNC(=O)C[C@H](Cc1ccc(F)cc1)NC(=O)[C@@H](Cc1ccc(Cl)cc1Cl)NC(=O)[C@H](N)Cc1ccccc1C#N", "target or system": "rep main protease", "assay": "enzyme activity, inhibitor", "measurement": "IC50", "value": "600 nM"}
{"SMILES": "CC(C)(C)c1ccc(-c2cn(-c3ccc(C(=O)C=C(O)C(=O)O)cc3)nn2)cc1", "target or system": "rep nsp14 with nsp10", "assay": "exonuclease activity, inhibitor", "measurement": "IC50", "value": "> 50000 nM"}
{"SMILES": "Cc1ccc(S(=O)(=O)Nc2cccc(C(=O)NC3CCN(c4ncnc5[nH]cnc45)CC3)c2)cc1Cl", "target or system": "SARS-CoV-2", "system": "Wuhan-Hu-1", "setting": "200 µM", "how to read": "baseline: untreated infected cells", "measurement": "relative infection", "value": "14%"}
{"SMILES": "O=C(O)C(O)=CC(=O)C1(Cc2ccc(Cl)cc2)CCN(C(=O)OCc2ccccc2)CC1", "target or system": "rep nsp14 with nsp10", "assay": "exonuclease activity, inhibitor", "measurement": "IC50", "value": "33800 nM"}
{"SMILES": "O=C(O)c1cc(OC2OC(CO)C(O)C(O)C2O)c2ccccc2c1O (stereo not drawn)", "target or system": "rep nsp3 Mac1 domain", "assay": "enzyme activity, inhibitor, AlphaScreen", "measurement": "IC50", "value": "36700 ± 3700 nM"}
{"SMILES": "O=C(O)C(O)=CC(=O)c1ccc(O)c(O)c1", "target or system": "rep nsp14 with nsp10", "assay": "exonuclease activity, inhibitor", "measurement": "IC50", "value": "7100 ± 500 nM"}
{"SMILES": "O=C(Oc1cccc2cccnc12)c1cccs1", "target or system": "rep nsp3 Mac1 domain", "assay": "enzyme activity, inhibitor, fluorescence polarization", "measurement": "IC50", "value": "> 300000 nM"}
{"SMILES": "NS(=O)(=O)c1ccc(-c2cn(-c3ccc(C(=O)C=C(O)C(=O)O)cc3)nn2)cc1", "target or system": "rep nsp14 with nsp10", "assay": "exonuclease activity, inhibitor", "measurement": "IC50", "value": "14000 ± 4000 nM"}
{"SMILES": "CN(C)CCCCNC(=O)C[C@H](Cc1ccc(F)cc1)NC(=O)[C@@H](Cc1ccc(Cl)cc1Cl)NC(=O)[C@H](Cc1ccccc1C#N)NC(=O)OC(C)(C)C", "target or system": "rep main protease", "assay": "enzyme activity, inhibitor", "measurement": "IC50", "value": "> 10000 nM"}
